# Assay results pooled from the literature.
# Protocols differ between the studies behind these lines. “And” joins repeats or separate records; there may be more than shown. Numbers after ± are the reported error.
# FFAR4: Free fatty acid receptor 4 (FFAR4, Homo sapiens, UniProt Q5NUL3)
# GAP50: Glideosome-associated protein 50 (GAP50, Plasmodium falciparum, UniProt Q8I2X3)
# NADH dehydrogenase [ubiquinone] iron-sulfur protein 7, mitochondrial/NADH dehydrogenase [ubiquinone] iron-sulfur protein 2, mitochondrial/MT-ND1: NADH dehydrogenase [ubiquinone] iron-sulfur protein 7, mitochondrial/NADH dehydrogenase [ubiquinone] iron-sulfur protein 2, mitochondrial/MT-ND1 (Homo sapiens, UniProt O75251+O75306+P03886)
# TRPM8: Transient receptor potential cation channel subfamily M member 8 (TRPM8, Homo sapiens, UniProt Q7Z2W7)
# Kir3.1/Kir3.2: Kir3.1/Kir3.2 (Homo sapiens, UniProt P48051+P48549)
# Maoa: Amine oxidase [flavin-containing] A (Maoa, Rattus norvegicus, UniProt P21396)
# CXCR4: C-X-C chemokine receptor type 4 (CXCR4, Homo sapiens, UniProt P61073)
# PDE1C isoform PDE1C2: Dual specificity calcium/calmodulin-dependent 3',5'-cyclic nucleotide phosphodiesterase 1C, isoform PDE1C2 (PDE1C, Homo sapiens, UniProt Q14123)
SMILES,target,assay,test system,setting,scale,quantity,value
O=Nc1c(NCCc2ccccc2)[nH]c(=O)[nH]c1=O,FFAR4,"agonist, β-arrestin recruitment",CHO cells,10 µM,baseline: 30 µM TUG-891,agonist effect,1 ± 1%
COc1cc2c(cc1O)[C@@H](Cc1ccc(O)cc1)[N+](C)(C)CC2,GAP50,differential scanning fluorimetry,,,,ΔTm,2 °C
Nc1nc2c(ncn2[C@@H]2O[C@@H]3COP(=O)(O)O[C@H]4[C@@H](O)[C@H](n5cnc6c(=O)[nH]c(N)nc65)O[C@@H]4COP(=O)(O)O[C@H]3[C@H]2O)c(=O)[nH]1,"Cell cycle histidine kinase CckA, DHp-CA domains (Caulobacter vibrioides, UniProt Q9X688)",isothermal titration calorimetry,Caulobacter crescentus,"concentration not given, 12 °C, added: ADP 5 mM",,binding enthalpy (ΔH),0.9 kcal/mol
COc1cccc(-n2nc3c4cc(Cl)ccc4[nH]cc-3c2=O)c1,"Gamma-aminobutyric acid receptor subunit alpha-4/beta-3, with delta subunit (Rattus norvegicus, UniProt P28471+P63079)","modulator, two-electrode voltage clamp",α4β3δ receptor,"10 µM, added: GABA EC3-10",baseline: GABA alone,GABA current,121 ± 4.5%
COc1cc(/C=C/c2ccc(O)cc2)cc(OC)c1,"O-methyltransferase (Sorghum bicolor, UniProt A0A1B6PFV1)",,,"concentration not given, added: SAH+",,ΔG of binding,-9.85 kcal/mol
Nc1ccc(C(=O)O)cc1,"BEST1, with wild-type BEST1 (Homo sapiens, UniProt O76090, A10T)",whole-cell patch clamp,HEK293 co-expressing WT and A10T mutant,"concentration not given, membrane potential 60 mV",,current density,8.89 pA/pF and 20.4 pA/pF and 17.1 pA/pF and 22.7 pA/pF and 9.35 pA/pF and 33.3 pA/pF
CC(C)(C)c1cc(C(=O)Nc2cccnc2)cc(C(=O)Nc2cccnc2)c1,GAP50,"binding, surface plasmon resonance",,1:1 binding model,,koff,1.56 s⁻¹
CC1=C[C@H](O)CC(C)(C)[C@H]1/C=C/C(C)=C/C=C/C(C)=C/C=C/C=C(C)/C=C/C=C(C)/C=C/C1=C(C)C[C@@H](O)CC1(C)C,"Beta-lactoglobulin (LGB, Bos taurus, UniProt P02754)",fluorescence quenching,,308 K,,Stern-Volmer quenching constant,19300 ± 3700 L/mol
COc1cc(O)c(CC=C(C)C)c(O)c1C(=O)/C=C/c1ccc(O)cc1,"Thyroxine 5-deiodinase (DIO3, Homo sapiens, UniProt P55073, A240R)",inhibitor,,A240R variant,,Hill slope,-1.03 and -1.04 and -0.91
NC(=O)NO,"NADH dehydrogenase [ubiquinone] iron-sulfur protein 7, mitochondrial/NADH dehydrogenase [ubiquinone] iron-sulfur protein 2, mitochondrial/MT-ND1","complex I-dependent respiration, Seahorse XF96",HCT-116,"250 µM, 24 h",baseline: control,oxygen consumption rate,91.3 ± 1.98%
NC(=O)c1ccc(-c2nc(-c3ccc4c(c3)OCCO4)c(-c3ccccn3)[nH]2)cc1,TRPM8,antagonist,HEK293,5 µM,baseline: control,remaining activity,105 ± 13.4%
COc1ccc(CCNc2cc(=O)[nH]c(=O)[nH]2)cc1,FFAR4,"agonist, β-arrestin recruitment",CHO cells,10 µM,baseline: 30 µM TUG-891,agonist effect,0%
O=C(COc1ccc(Cl)cc1Cl)Nc1nn(-c2ccccc2)c2ncccc12,Kir3.1/Kir3.2,"thallium flux, activator",HEK293,,baseline: standard compound,Emax,22%
CCCCCCCCCNc1cc(=O)n(C)c(=O)[nH]1,FFAR4,"agonist, β-arrestin recruitment",CHO cells,10 µM,,activation,0%
C=CC(=O)N1CCC(COCC(=O)N2CCN(c3nc(-c4cnc(N)nc4C(F)F)nc(N4CCOC[C@@H]4C)n3)CC2)CC1,"Serine/threonine-protein kinase 17A (STK17A, Homo sapiens, UniProt Q9UEE5)",KINOMEscan,,1 µM,,remaining binding,77%
CC(=O)Nc1ccc(O)cc1,"Bromodomain-containing protein 4 (BRD4, Homo sapiens, UniProt O60885)","19F NMR, measured: tyrosine 97",,375 µM,baseline: free protein,chemical shift change,-0.148 ppm
CCCCCCCCNc1c[nH]c(=O)[nH]c1=O,FFAR4,"antagonist, β-arrestin recruitment",CHO cells,"10 µM, added: 4 µM TUG-891",,inhibition,38 ± 4%
[O-][S+]1CCCCS1 (stereo not shown),"Superoxide dismutase [Cu-Zn] (SOD1, Homo sapiens, UniProt P00441, G94A)",two-compartment model,"SOD1 G93A transgenic mice, whole blood","iv, 10 mg/kg",,beta rate constant,0.008 h⁻¹
Nc1ncnc2c1ncn2[C@@H]1O[C@H](COP(=O)(O)OP(=O)(O)OP(=O)(O)O)[C@@H](O)[C@H]1O,"P2X purinoceptor 7 (P2rx7, Rattus norvegicus, UniProt Q64663)","ion current, agonist, two-electrode voltage clamp",Xenopus laevis oocytes,1000 µM,baseline: highest concentration response,normalized current,0.96 and 1 and 0.98
O=C(CN(CCCCI)CCCN1CCN(C2CCCCC2)CC1)Nc1ccc(C(=O)c2ccccc2)cc1,"Sigma intracellular receptor 2 (TMEM97, Homo sapiens, UniProt Q5BJF2)",radioligand binding,RT-4 cell membranes,,baseline: sigma1 Ki over sigma2 Ki,Ki ratio,3.84
O=c1cc(NCCc2cccc(F)c2)[nH]c(=O)[nH]1,FFAR4,"agonist, β-arrestin recruitment",CHO cells,10 µM,,activation,0%
NC(=O)NOCCCCCCCCCCCCCCCC[P+](c1ccccc1)(c1ccccc1)c1ccccc1.O=C([O-])C(F)(F)F,"NADH dehydrogenase [ubiquinone] iron-sulfur protein 7, mitochondrial/NADH dehydrogenase [ubiquinone] iron-sulfur protein 2, mitochondrial/MT-ND1","complex I-dependent respiration, Seahorse XF96",HCT-116,"0.1 µM, 24 h",baseline: control,oxygen consumption rate,88.9 ± 5.6%
CCC(=O)NS(=O)(=O)c1ccc(-c2c(-c3ccccc3)noc2C)cc1,"Nuclear receptor subfamily 4 group A member 2, LBD; with RXRα (Homo sapiens, UniProt P43354)","reporter gene, full-length heterodimer DR5 reporter",,50 µM,baseline: vehicle,activation,0.52 fold
C[C@]12CCC(=O)C=C1CC[C@@H]1[C@@H]2[C@@H](O)C[C@@]2(C=O)[C@H]1CC[C@]2(O)C(=O)CO,"Mineralocorticoid receptor (NR3C2, Homo sapiens, UniProt P08235)","reporter gene, agonist",,,baseline: baseline,maximal response,25 fold
NCc1ccccc1,Maoa,substrate,,pH 9.0,,kcat,0.55 ± 0.00267 s⁻¹
CCNc1nc(C#N)nc(Nc2ccccc2)n1,"3-oxoacyl-[acyl-carrier-protein] reductase FabG (fabG, Pseudomonas aeruginosa, UniProt O54438)","enzyme activity, inhibitor, NADPH fluorescence",,"reverse reaction, added: 3-OH-decanoyl-NAC, NADP",,Hill slope,1.5
Nc1ncnc2c1ncn2[C@@H]1O[C@H](CO[P@](=O)(O)O[P@](=O)(O)O[P@@](=O)(O)S)[C@@H](O)[C@H]1O,"GUK1 (Homo sapiens, UniProt Q16774)",ITC,,molar ratio 3.736,,ΔH,-0.176 kcal/mol
O=c1cc(N2CCOCC2)oc2c1ccc1ccccc12,TRPM8,antagonist,HEK293,5 µM,baseline: control,remaining activity,101 ± 9.31%
Nc1ncnc2c1ncn2[C@@H]1O[C@H](COP(=O)(O)CP(=O)(O)OP(=O)(O)O)[C@@H](O)[C@H]1O,"P2X purinoceptor 1 (P2RX1, Homo sapiens, UniProt P51575, M214A)",calcium influx,,1 µM,baseline: ionomycin response,calcium influx,71.6% and 55.8% and 79.4% and 68.6%
CN(C)CCCn1cc(C2=C(c3c[nH]c4ccccc34)C(=O)NC2=O)c2ccccc21,TRPM8,antagonist,HEK293,5 µM,baseline: control,remaining activity,101 ± 6.26%
C=CC(=O)N1CCC[C@@H](n2nc(-c3ccc(Oc4ccccc4)cc3)c3c(N)ncnc32)C1,"Cyclin-dependent kinase-like 1 (CDKL1, Homo sapiens, UniProt Q00532)",,,0.1 µM,,remaining activity,35.6%
O=C(Nc1ncnc2c1ncn2[C@@H]1O[C@@H]2COP(=O)(O)OC2C1O)c1ccccc1 (stereo in doubt),anti-cAMP antibody,"antibody binding, competitive cAMP EIA",,"concentration not given, acetylated samples","baseline: EC50 cAMP over EC50 cpd, higher = stronger binding",relative binding affinity,0.006
Cc1ccc(S(=O)(=O)NCc2ccc(CNC(=O)c3ccccc3Cl)cc2)cc1,CXCR4,"binding, inhibitor, competitive binding",MDA-MB-231,added: biotinylated TN14003,,EC,10 nM
NC(=O)NOCCCCCCCCCCCCCC[P+](c1ccccc1)(c1ccccc1)c1ccccc1.O=C([O-])C(F)(F)F,"NADH dehydrogenase [ubiquinone] iron-sulfur protein 7, mitochondrial/NADH dehydrogenase [ubiquinone] iron-sulfur protein 2, mitochondrial/MT-ND1","complex I-dependent respiration, Seahorse XF96",HCT-116,"20 µM, 24 h",baseline: control,oxygen consumption rate,0.11 ± 2.19%
COc1cc(O)c2c(c1)oc(=O)c1c3cc(O)c(O)cc3oc21,"Alpha-glucosidase MAL12 (MAL12, Saccharomyces cerevisiae S288c, UniProt P53341)",circular dichroism,,molar ratio 1:1,,β-Sheet content,40.6%
c1cncc(NCc2ccc(-c3cc4ccncc4cc3OC3CCNCC3)s2)c1,GAP50,"binding, surface plasmon resonance",,1:1 binding model,,koff,0.397 s⁻¹
CN(C)c1ccc2nc3ccc(=[N+](C)C)cc-3sc2c1,"Microtubule-associated protein tau (MAPT, Homo sapiens, UniProt P10636)","fibril formation, ThT fluorescence",,"1-fold of tau, at plateau, added: wild-type tau 10 µM, heparin",baseline: untreated,ThT fluorescence,14 ± 2%
O=c1nc(SCc2cc(F)cc(C(F)(F)F)c2)nc(SCc2csc3ccc(Cl)cc23)[nH]1,"DNA topoisomerase 2-alpha (TOP2A, Homo sapiens, UniProt P11388)",DNA cleavage,,"7.8 µM, replicate 2",,linear DNA,0%
CSCCCNc1cc(=O)[nH]c(=O)[nH]1,FFAR4,"antagonist, β-arrestin recruitment",CHO cells,"10 µM, added: 4 µM TUG-891",,inhibition,25 ± 10%
CC[C@@H]1[C@H](F)C(=O)N[C@@H]1COc1nccc2cc(C(N)=O)c(OC)cc12,"Mitogen-activated protein kinase kinase kinase 11 (MAP3K11, Homo sapiens, UniProt Q16584)","ATP-site probe binding, ActivX profiling, measured: MLK3",THP-1 cell lysate,"0.01 mM, Lys1 site",,inhibition,3.8%
NC(=O)NOCCCCCCCCCCCCCCCCCCCC[P+](c1ccccc1)(c1ccccc1)c1ccccc1.O=C([O-])C(F)(F)F,"NADH dehydrogenase [ubiquinone] iron-sulfur protein 7, mitochondrial/NADH dehydrogenase [ubiquinone] iron-sulfur protein 2, mitochondrial/MT-ND1","complex I-dependent respiration, Seahorse XF96",HCT-116,"3 µM, 24 h",baseline: control,oxygen consumption rate,8.51 ± 1.25%
O=C(ON1C(=O)CCC1=O)c1cc(C(F)(F)F)cc(C(F)(F)F)c1,"CD209 antigen (CD209, Homo sapiens, UniProt Q9NNX6)","covalent labelling, intact protein MS",,100 µM,,kobs,0.175 min⁻¹
c1ccc(Oc2ccc(-c3cc(N4CCOCC4)n[nH]3)cc2)cc1,GAP50,"binding, surface plasmon resonance",,1:1 binding model,,koff,1.14 s⁻¹
CCCCCCCCN(C)c1cc(=O)[nH]c(=O)[nH]1,FFAR4,"antagonist, β-arrestin recruitment",CHO cells,"10 µM, added: 4 µM TUG-891",,inhibition,22 ± 2%
COc1ccc(CN)cc1,Maoa,substrate,rat,"pH 9.0, α,α-protio substrate",,kcat,0.4667 ± 0.00367 s⁻¹
COc1cccc(C(=O)NCc2ccc(CNS(=O)(=O)c3ccccc3)cc2)c1,CXCR4,"binding, inhibitor, competitive binding",MDA-MB-231,added: biotinylated TN14003,,EC,> 1000 nM
CCc1cc(NC(=O)COc2cccc(Cl)c2Cl)n(C2CCOCC2)n1,Kir3.1/Kir3.2,"thallium flux, activator",HEK293,,baseline: standard compound,Emax,87%
Nc1nc2c(F)cccc2[nH]1,"Voltage-gated hydrogen channel 1 (HVCN1, Homo sapiens, UniProt Q96D96, F150A)","proton current, inhibitor, inside-out patch clamp",,,,Hill coefficient,0.93 ± 0.03
Cc1cc2c(c(=O)[nH]1)C(=O)O/C2=C\c1ccc(Br)cc1OC(C)C,PDE1C isoform PDE1C2,"enzyme activity, inhibitor",,added: 3H-cGMP substrate,,binding free energy,-8.17 kcal/mol
NCCCCC(=O)O,"Sodium- and chloride-dependent taurine transporter (SLC6A6, Homo sapiens, UniProt P31641, G62A)","binding, microscale thermophoresis",,"62.5 µM, room temperature, added: 50 nM labelled protein",higher = more binding,normalised MST signal,-0.0265
CCc1cc(NC(=O)COc2cccc(Cl)c2Cl)n(CC(F)(F)F)n1,Kir3.1/Kir3.2,"thallium flux, activator",HEK293,,baseline: standard compound,Emax,83%
Cc1cc2c(c(=O)[nH]1)C(=O)O/C2=C\c1ccc(F)cc1OC(C)C,PDE1C isoform PDE1C2,"enzyme activity, inhibitor",,added: 3H-cGMP substrate,,ligand efficiency,0.35

# A few entries again:
SMILES,target,assay,test system,setting,scale,quantity,value
CCCCCCCCNc1c[nH]c(=O)[nH]c1=O,FFAR4,"antagonist, β-arrestin recruitment",CHO cells,"10 µM, added: 4 µM TUG-891",,inhibition,38 ± 4%
CCc1cc(NC(=O)COc2cccc(Cl)c2Cl)n(CC(F)(F)F)n1,Kir3.1/Kir3.2,"thallium flux, activator",HEK293,,baseline: standard compound,Emax,83%
CCCCCCCCCNc1cc(=O)n(C)c(=O)[nH]1,FFAR4,"agonist, β-arrestin recruitment",CHO cells,10 µM,,activation,0%
NCc1ccccc1,Maoa,substrate,,pH 9.0,,kcat,0.55 ± 0.00267 s⁻¹
